Measured values pooled from the literature.
Each line is one published result; not all experiments were run side by side. Numbers after ± are the reported error.

SMILES | target or system | test | test system | setting | scale | endpoint | result
CN(C)c1nc(N(C)C)nc(N(C)C)n1 | human coronavirus OC43 | virus-induced cell killing | MRC-5 | maximum over 10 doses | – | maximum inhibition | 1.04%
CC(=O)N1CCC(C(=O)N2CCN3C(=O)c4cc(-c5ccccc5)ccc4NC(=O)C3C2)CC1 (stereo not shown) | Salmonella typhimurium | – | TA100 | 1.58 µg/plate, added: rat liver S9 | reference: vehicle control | revertant fold increase | 0.9
NC(=O)CCCSc1nc(N)nc(-c2c(Cl)cc3c4c(cccc24)COC3)n1 | human coronavirus OC43 | virus-induced cell killing | MRC-5 | screen | – | maximum inhibition | 32.4%
CC(C)N(C)N=O | Salmonella typhimurium | mutagenicity, Ames plate incorporation | TA100 | 2500 µg/plate, 3 d, without S9, methanol | – | revertant colonies per plate | 169 ± 12
O=[N+]([O-])c1ccc(N2CCC(NCCC(O)c3ccc(F)c4ccccc34)CC2)c(C(F)(F)F)c1 (stereo not shown) | Salmonella typhimurium | SOS/umu test | TA1535/pSK1002 | 0.002 mg/mL, 4 h, with S9, full range | – | survival | 70%
CN(N=O)c1ccc(F)cc1 | Salmonella typhimurium | mutagenicity, Ames plate incorporation | TA1537 | 50 µg/plate, 3 d, without S9, methanol | – | revertant colonies per plate | 10.7 ± 4
N#C[C@@]1(n2ccc(N)nc2=O)O[C@H](CO)[C@@H](O)[C@H]1O | Salmonella typhimurium | – | TA100 | 25 µM, without S9, unit not given | reference: control | viability | 93
O=[N+]([O-])c1ccc(NC2CCNCC2)c(C(F)(F)F)c1 | Salmonella typhimurium | SOS/umu test | TA1535/pSK1002 | 0.125 mg/mL, 4 h, with S9, full range | – | survival | 91.6%
Cc1cc(C(=O)NC(C)(C)COc2cccc3c2C(N)=NS(=O)(=O)N3)cc(C)n1 | Salmonella typhimurium | Ames test, confirmatory | TA1535 | 100 µg/plate, added: rat liver S9 | reference: solvent control | revertant ratio | 0.8
CNC(=O)c1c(N(C)N=O)ncn1C | Salmonella typhimurium | plate incorporation | TA1535, water | 500 µg/plate, without S9 | – | revertant colonies per plate | 33 ± 3
COc1cccc(-c2n[nH]c(SCc3ccccn3)n2)c1OC | Salmonella typhimurium | Ames test, plate incorporation | TA100 | 0.25 mg/plate, with rat liver S9 | – | revertant colonies per plate | 105
O=[N+]([O-])c1ccc(N2CCN(CCC(O)c3ccc(F)cc3)CC2)c(C(F)(F)F)c1 (stereo not shown) | Salmonella typhimurium | genotoxicity, SOS/umu test | TA1535/pSK1002 | 0.016 mg/mL, 4 h, with S9, full range | – | induction factor | 1.1
CCN(CC)CCCNC(=O)c1ccc(-c2nc(CN3CCc4ccccc43)c(C)o2)cc1 | Vero-E6 | CellTiter-Glo ATP | – | concentration not given, 72 h, retest 8-point duplicates | reference: DMSO 0%, hyamine -100%, more negative, more toxic | cytotoxicity efficacy | 0%

A few entries again:
SMILES | target or system | test | test system | setting | scale | endpoint | result
CC(C)N(C)N=O | Salmonella typhimurium | mutagenicity, Ames plate incorporation | TA100 | 2500 µg/plate, 3 d, without S9, methanol | – | revertant colonies per plate | 169 ± 12
